# Measurements pooled from the literature.
# A part holds a random share of what one study measured.

# Block 1
# Target: Fragile X messenger ribonucleoprotein 1, C-terminal low-complexity region (Fmr1, Mus musculus, UniProt P35922)
# Method: RNA Bind-n-Seq
# Molecule type: RNA
# Medium: in vitro
# Tested at: 200 nM
# Setting: whole 134-nt RNA, ends assumed
# Added: 150 mM KCl
# Reference: input library
# Direction: higher = stronger binding
# All sequences stand within: GGGAGUUCUACAGUCCGACGAUC … UGGAAUUCUCGGGUGUCAAGG
Oligonucleotide,log2 enrichment
UGGCUUUCACCCCCAACCAGUGACCAAAGACUUGACCACUCAAAGUCCAGCUCCCCAGAACACUGCUCGACAUGGACACCGGUGUGAUUG,0.662
UCCCGGGCGCUAGCCCACCUCCCACCCGCCUCUUGGCUCCUCUCCUCUAGGCCGUCGCUUUCGGGUUCUCUCAUCGCUUCGUCGUUCGCC,0.422
CACAGACAACACGCACCCACACAGACACAGAGGGAAGGGGUUGGGAUGGGGACAGGGUGCACAGCAGGGCGGGGUAGGACCCCAGAAACU,1.17
AAGUCCUGUGCUACACAUCGUAUGUACCGAAUCGGCCCCGGCCCCGGGGCCCCGGGGAAAGUAUUAUGUUACGCCGUUCGGAUCUGCACU,-0.841
UAACUUUAGAGGAGGAUCUGAUGGAUAUGGCAGUGGACGUGGAUUUGGGGAUGGCUAUAUUGGGUAUGGAGGAGGACCUGGAGGUGGCAA,0.281
UUGGGCUGCCCAUCACCGUGGCCCAUGUGGAUGGCCAAACCCACAUGUUAUUUGGCUCUGACCGGAUGGAGCUGCUGGCGCACCUGCUGG,-1.53
CUCAAGUCCUGUGCUACACAUCGUAUGUACCGAAUCGGAAGGGAAGGGGAAGGGAAAGUAUUAUGUUACGCCGUUCGGAUCUGCACUUCC,0.535
UCCUGUGCUACACAUCGUAUGUACCGAAUCGGGAAAAAAGGGGAAAAAAGGGAAAAAAGGAAAGUAUUAUGUUACGCCGUUCGGAUCUGC,-0.417
UAACUUUAGAGGAGGACCUGAUGGAUAUGGCAGUGGACGUGGAUUUGGGGAUGGCUAUAAUGGGUAUGGAGGAGGACCUGGAGGUGGCAA,0.362
GCUGUUCUUGCCUUAGCUGCAUCUUGGACCUCAAGACAAGUAGGAGAACGGACGUUGACCGGUACGGUAAUAGACAGUGGAGAUGGUGUC,-0.894

# Block 2
# Effect on: peptide binding
# Molecule type: peptide
# Medium: yeast competitive growth
# Added: B1-Cln2 chimera
# Direction: direction not given
Molecule,enrichment score
DVSERGYVILPNDYFE,0.844
AKRSLGFLPQPVPL,-1.02
YLYLLLTQSLWCRV,-0.695
KRCATPVIIDEILPSK,0.371
KVRRNLFNQELLSP,-0.325
SPPRGRRLFPPGPAGF,-0.237
RQVRRDLFAF,-1.63
HPESPPRKRLKSKGSD,4.44
GTPKRCLDLSNLSSGE,-0.848
VKRLNFRSEEME,0.167
ESSQLTVQAEFDMSAI,0.769
QYQVVDDIVSKLVFDF,1.34
EPRNLLSLFEDTLDPT,0.615

# Block 3
# Target: Histone acetyltransferase KAT6A, winged helix 1, GST fusion (KAT6A, Homo sapiens, UniProt Q92794, residues 1-85)
# Method: protein binding microarray
# Molecule type: double-stranded DNA, one strand shown
# Medium: in vitro
# Tested at: not given
# Setting: 8-mer, flanks averaged, mean of 2 arrays, mostly near background
# Reference: not given
# Direction: higher = stronger binding
# Residues (chain): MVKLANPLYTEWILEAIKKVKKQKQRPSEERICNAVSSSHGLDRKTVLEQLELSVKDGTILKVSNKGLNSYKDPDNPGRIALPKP
Oligonucleotide,E-score
CAGTGGGC,-0.208
GTACAAAA,-0.122
AGTAGGCG,-0.0658
CCGTATAC,0.218
GCAATTGC,0.189
AACCATAA,-0.0464
AGGAAAAT,-0.206
AACTGGGC,-0.218
CACGGGAG,0.163
CACTGCGC,0.379
CTATGCAC,-0.079
AATGGGGT,-0.0519
GGATCTCA,-0.0664
CCGATGGC,0.219
AGCCAACA,-0.0353
ATAAGACC,-0.0654

# Block 4
# Target: RING finger protein unkempt homolog, zinc fingers 1-6, GST-SBP tag (UNK, Homo sapiens, UniProt Q9C0B0, residues 30-357)
# Chain of UniProt Q9C0B0 (30-357, looked up): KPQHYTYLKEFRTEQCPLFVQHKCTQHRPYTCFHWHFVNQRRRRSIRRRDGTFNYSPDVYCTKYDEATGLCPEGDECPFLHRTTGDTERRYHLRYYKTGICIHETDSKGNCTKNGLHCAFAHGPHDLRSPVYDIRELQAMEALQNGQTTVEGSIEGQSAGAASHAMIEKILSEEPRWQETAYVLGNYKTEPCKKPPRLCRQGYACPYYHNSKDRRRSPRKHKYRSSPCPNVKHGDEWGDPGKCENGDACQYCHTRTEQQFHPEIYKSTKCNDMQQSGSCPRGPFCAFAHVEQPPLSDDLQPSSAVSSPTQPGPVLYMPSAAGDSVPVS
# Method: RNA Bind-n-Seq
# Molecule type: RNA
# Medium: in vitro
# Tested at: not given
# Setting: RNA with constant flanks, human-mouse chimeric sites, ends assumed
# Reference: input RNA pool
# Direction: higher = stronger binding
# All sequences stand within: GGGAGUUCUACAGUCCGACGAUC … CAACAGAGGAUUGAGCAUCA
Oligonucleotide,bound/input enrichment [ratio]
UCAGGAACCCAGACAAAUAUGAAUGUAAAUGAAGUCAUUAGCAACAGAGCAAUUGAAAUGUUAGGAGGUGAACUUGGCAGCAAGAUACCUGUGCACCCCAAUGAUCAUGUUAACAAAAGC,0.424
UAACCACAUCAAGAUGGUUGGGAAGCUGAAGCAGAACUUACUAUUGGCGUGUCUGGUGAUUAGUUCUGUGACCGUGUUUUACCUGGGCCAGCAUGCCAUGGAAUGCCAUCACCGAAUAGA,0.186
AAAGUGAUGACUAUGUUUGUCCAACGACAGGUAUUUUCGGAGAGCAAAGAUGAGAUUGCGUUAGUCCUCUAUGGCACAGAUGGCACUGAUAAUGCCCUUUCUGGUGGGGAUCAGUAUCAG,0.301
CAACCUCAGAGCCCAGACUUCCUGGAUAUUACCAACCCUAAAGCGGUAUUAGAAAAUGCAUUGAGAAACUUCGCCUGUCUGACGACUGGAGAUGUGAUUGCUAUCAACUAUAAUGAAAAG,0.416
GGUGGGGUGGUCAUUGCCGUUUGAGCUCUGCUGAUUCAUGAGUCGCCUUCAAAACUCUCGUGUAGGGUUGACAAUGUGGGGGGGUGGGGGAUCCAGCUUAUUCUUUUAUUUUCAAGUCCA,0.912
GUACUGCAGCAGCAGGGCAAGCUGCAGGAAGCUCUGAUGCACUAUAAGGAGGCUAUUCGAAUCAGUCCUACCUUUGCUGAUGCCUACUCUAAUAUGGGAAACACUCUAAAGGAGAUGCAG,0.233
UGUGAACUGUCUCUUGAGAUCUAAAAAAAACAUGAUUUUUCCUGGCACAUAUUCCAAAGCAAAGACUUUGUUGCCUGCUGCUUCUUGUCUAAUUUACAGGGAUAUUUAAUUUUGUCAGGU,0.171

# For quick reference, copied from above (block 4):
Oligonucleotide,bound/input enrichment [ratio]
UAACCACAUCAAGAUGGUUGGGAAGCUGAAGCAGAACUUACUAUUGGCGUGUCUGGUGAUUAGUUCUGUGACCGUGUUUUACCUGGGCCAGCAUGCCAUGGAAUGCCAUCACCGAAUAGA,0.186
UGUGAACUGUCUCUUGAGAUCUAAAAAAAACAUGAUUUUUCCUGGCACAUAUUCCAAAGCAAAGACUUUGUUGCCUGCUGCUUCUUGUCUAAUUUACAGGGAUAUUUAAUUUUGUCAGGU,0.171
AAAGUGAUGACUAUGUUUGUCCAACGACAGGUAUUUUCGGAGAGCAAAGAUGAGAUUGCGUUAGUCCUCUAUGGCACAGAUGGCACUGAUAAUGCCCUUUCUGGUGGGGAUCAGUAUCAG,0.301
GUACUGCAGCAGCAGGGCAAGCUGCAGGAAGCUCUGAUGCACUAUAAGGAGGCUAUUCGAAUCAGUCCUACCUUUGCUGAUGCCUACUCUAAUAUGGGAAACACUCUAAAGGAGAUGCAG,0.233
